Experimental data pooled from the literature.
Parts stem from different laboratories: compare values within a part only.

Block 1
Target: Sal-like protein 4, full length isoform A (SALL4, Homo sapiens, UniProt Q9UJQ4, residues 1-1053)
Chain of UniProt Q9UJQ4 (whole entry, looked up): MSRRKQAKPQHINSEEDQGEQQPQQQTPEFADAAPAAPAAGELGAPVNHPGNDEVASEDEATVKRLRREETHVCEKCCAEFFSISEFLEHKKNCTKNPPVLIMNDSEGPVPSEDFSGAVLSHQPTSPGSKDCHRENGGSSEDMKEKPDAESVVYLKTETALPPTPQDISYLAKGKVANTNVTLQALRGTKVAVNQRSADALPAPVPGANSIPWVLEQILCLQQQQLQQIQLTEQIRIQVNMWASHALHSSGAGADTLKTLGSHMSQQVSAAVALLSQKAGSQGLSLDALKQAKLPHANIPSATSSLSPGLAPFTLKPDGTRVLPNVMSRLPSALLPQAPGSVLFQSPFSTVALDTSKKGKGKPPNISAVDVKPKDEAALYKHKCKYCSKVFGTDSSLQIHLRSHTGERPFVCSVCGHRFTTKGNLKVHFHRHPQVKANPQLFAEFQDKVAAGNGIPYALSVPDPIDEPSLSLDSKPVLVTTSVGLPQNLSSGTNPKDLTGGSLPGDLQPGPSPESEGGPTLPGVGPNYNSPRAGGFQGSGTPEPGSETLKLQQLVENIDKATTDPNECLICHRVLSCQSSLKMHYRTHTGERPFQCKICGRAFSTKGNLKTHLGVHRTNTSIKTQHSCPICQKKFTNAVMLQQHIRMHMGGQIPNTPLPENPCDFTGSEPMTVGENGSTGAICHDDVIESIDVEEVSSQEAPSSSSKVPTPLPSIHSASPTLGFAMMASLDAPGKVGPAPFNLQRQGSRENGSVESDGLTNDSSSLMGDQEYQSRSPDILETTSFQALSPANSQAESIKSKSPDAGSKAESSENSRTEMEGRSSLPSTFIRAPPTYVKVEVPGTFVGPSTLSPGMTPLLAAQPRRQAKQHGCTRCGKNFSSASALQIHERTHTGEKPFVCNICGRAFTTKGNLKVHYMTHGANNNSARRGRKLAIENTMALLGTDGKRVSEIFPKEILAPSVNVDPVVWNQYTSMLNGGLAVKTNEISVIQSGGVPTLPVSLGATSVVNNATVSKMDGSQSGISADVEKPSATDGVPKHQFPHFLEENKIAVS
Technique: universal PBM
Form: double-stranded DNA, one strand shown
Medium: in vitro
Concentration: 600 nM
Notes: 8-mer, flanks averaged, mean of replicates
Direction: higher = stronger binding
`AAAAGACA` gave an E-score of 0.199.
For `AATTACCA`, the E-score was 0.329.
`TGGATCCA` has an E-score of 0.124.

Block 2
Target: Histone acetyltransferase KAT6A, both winged helices, GST fusion (KAT6A, Homo sapiens, UniProt Q92794, residues 1-181)
Technique: protein binding microarray
Form: double-stranded DNA, one strand shown
Medium: in vitro
Concentration: not given
Notes: 8-mer, flanks averaged, mean of 2 arrays, mostly near background
Reference: not given
Direction: higher = stronger binding
Construct (chain): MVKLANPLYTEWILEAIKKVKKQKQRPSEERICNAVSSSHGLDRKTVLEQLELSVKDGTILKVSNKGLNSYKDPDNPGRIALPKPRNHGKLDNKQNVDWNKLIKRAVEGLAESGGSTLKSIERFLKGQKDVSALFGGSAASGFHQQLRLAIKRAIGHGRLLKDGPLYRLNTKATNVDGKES
`CCATAAAG` has an E-score of -0.272.
The E-score of `GACGCACA` is reported as 0.183.
`CGGATCAG` gave an E-score of 0.0427.
The E-score of `ACACAACA` is reported as 0.0553.
`CTCGCGTA` gave an E-score of 0.166.

Block 3
Target: Prothrombin, mature alpha-thrombin (F2, Homo sapiens, UniProt P00734)
Technique: aptamer microarray, sandwich
Form: DNA with 2'F-ANA
Medium: in vitro
Concentration: 200 nM
Notes: whole 15-mer aptamer, many near background
Together with: Cy3 exosite-II aptamer, 400 nM
Direction: higher = stronger binding
`GGTTGGTGTGGTTGG (2'F-ANA at 6 7 8 13)` — result for “mean fluorescence intensity”: 454 a.u.
`GGTTGGTGTGGTTGG (2'F-ANA at 2 4 5 10 13)`: “mean fluorescence intensity” 46.5 a.u.
`GGTTGGTGTGGTTGG (2'F-ANA at 2 10 11 13 14 15)` — result for “mean fluorescence intensity”: 89.8 a.u.
Under “mean fluorescence intensity”, `GGTTGGTGTGGTTGG (2'F-ANA at 1 2 6 9 11 12 13 15)` is recorded as 187 a.u.

Single results of other studies
For `PhoQ, residues 284 288 289 292 302 303 SSCCRF`, the fold induction was 12.7 (PhoP, residues 12 14 15 18 19 NQGLL (Escherichia coli, UniProt P23836); Sort-seq, item: YFP reporter; E. coli; PhoQ-PhoP variant library, together with: 10 µM Mg2+; reference: high Mg2+ state, higher = stronger signaling).

For quick reference, copied from above (block 2):
`CTCGCGTA` gave an E-score of 0.166.
